Experimental data from different studies.
Numbered parts are unrelated; each lists some results of a single study.

Study 1 — technique: protein-binding microarray; molecule type: double-stranded DNA, one strand shown; matrix: in vitro; concentration: 940 nM top; notes: 60-bp whole probe; together with: salmon DNA 0.4 mg/ml; baseline: random background probes; reading: higher = stronger binding; constant ends, left off below: GCCTAGCAC … GTCTTGATTCGCTTGACGCTGCTG
Target: Interferon regulatory factor 5, full length, phosphomimetic (IRF5, Homo sapiens, UniProt Q13568-2, residues 1-514, S451D/S453D/S456D/S462D)
For `TTAGGTTCCCTTTTCCTTTTGTGCTAG`, “fitted relative affinity” read 0.555 z-score.
`TTAGGCTCCGGTTTCGGTTAGTGCTAG`: “fitted relative affinity” 7.42 z-score.
Under “fitted relative affinity”, `GATGGACTGGGGTATCGGGACGTGCTA` is recorded as 0.572 z-score.
Under “fitted relative affinity”, `TTAGGTCTCCTTTTTCTTTAGTGCTAG` is recorded as 0.875 z-score.
Under “fitted relative affinity”, `TATGGTTTTTTTTTAATTGAGTGCTAG` is recorded as 1.39 z-score.

Study 2 — technique: protein binding microarray; molecule type: double-stranded DNA, one strand shown; matrix: in vitro; concentration: not given; baseline: not given; reading: higher = stronger binding
Target: Histone acetyltransferase KAT6A, winged helix 1, GST fusion (KAT6A, Homo sapiens, UniProt Q92794, residues 1-85)
Notes: 8-mer, flanks averaged, mean of 2 arrays, mostly near background
Construct (chain): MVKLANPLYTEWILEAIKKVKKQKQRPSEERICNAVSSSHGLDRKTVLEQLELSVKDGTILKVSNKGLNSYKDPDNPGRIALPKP
`ATAGACCG` has an E-score of 0.0258.
With `CTATGCAG` the E-score was -0.185.
`ACGACCAG` gave an E-score of -0.157.
The E-score of `AGTTACCA` is reported as 0.00879.
`AGGCCACG` has an E-score of 0.0968.

Study 3 — technique: universal PBM; molecule type: double-stranded DNA, one strand shown; matrix: in vitro; concentration: 600 nM; reading: higher = stronger binding
Target: Sal-like protein 4, full length isoform A (SALL4, Homo sapiens, UniProt Q9UJQ4, residues 1-1053)
UniProt Q9UJQ4, sequence (whole entry, looked up): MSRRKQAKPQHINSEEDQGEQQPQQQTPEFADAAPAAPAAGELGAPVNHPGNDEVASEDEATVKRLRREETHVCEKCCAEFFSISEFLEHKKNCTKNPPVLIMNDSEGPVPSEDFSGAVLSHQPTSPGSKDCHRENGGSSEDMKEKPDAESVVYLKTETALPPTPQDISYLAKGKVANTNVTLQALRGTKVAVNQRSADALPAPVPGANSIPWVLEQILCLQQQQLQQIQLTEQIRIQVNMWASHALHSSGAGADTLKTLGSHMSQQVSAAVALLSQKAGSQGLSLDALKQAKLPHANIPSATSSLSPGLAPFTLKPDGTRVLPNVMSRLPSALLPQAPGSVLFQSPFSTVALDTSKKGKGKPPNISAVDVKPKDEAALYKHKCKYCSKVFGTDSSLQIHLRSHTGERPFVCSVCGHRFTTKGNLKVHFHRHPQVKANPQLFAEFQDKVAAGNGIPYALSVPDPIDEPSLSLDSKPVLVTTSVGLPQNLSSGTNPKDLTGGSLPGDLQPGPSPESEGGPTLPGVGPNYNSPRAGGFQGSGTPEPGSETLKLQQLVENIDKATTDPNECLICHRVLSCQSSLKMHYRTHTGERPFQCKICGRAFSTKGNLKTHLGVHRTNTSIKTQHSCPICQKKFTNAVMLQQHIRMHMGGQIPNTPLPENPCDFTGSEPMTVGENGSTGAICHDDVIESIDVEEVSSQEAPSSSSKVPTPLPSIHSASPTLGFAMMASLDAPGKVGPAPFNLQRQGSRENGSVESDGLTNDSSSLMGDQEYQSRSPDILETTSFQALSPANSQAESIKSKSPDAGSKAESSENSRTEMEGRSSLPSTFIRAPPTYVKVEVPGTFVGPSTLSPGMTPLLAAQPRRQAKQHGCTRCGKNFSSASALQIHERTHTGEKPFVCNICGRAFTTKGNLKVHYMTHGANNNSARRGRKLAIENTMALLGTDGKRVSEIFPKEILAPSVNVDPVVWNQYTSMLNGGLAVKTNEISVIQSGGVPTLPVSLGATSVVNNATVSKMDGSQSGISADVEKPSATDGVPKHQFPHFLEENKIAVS
Notes: 8-mer, flanks averaged, mean of replicates
With `ACCCTTCC` the E-score was -0.0379.
`AACTCCGT` gave an E-score of -0.134.
The E-score of `AGCCCCTA` is reported as -0.223.
`CTGGCCCC` has an E-score of -0.427.
With `CGCCCACC` the E-score was -0.322.

Further values, each from its own experiment
For `PhoQ, residues 284 288 289 292 302 303 SSYNSA`, the fold induction was 0.752 (PhoP, residues 12 14 15 18 19 NIMAP (Escherichia coli, UniProt P23836); Sort-seq, item: YFP reporter; E. coli; PhoQ-PhoP variant library, together with: 10 µM Mg2+; baseline: high Mg2+ state, higher = stronger signaling).

For quick reference, copied from above (study 1):
Under “fitted relative affinity”, `TATGGTTTTTTTTTAATTGAGTGCTAG` is recorded as 1.39 z-score.
Under “fitted relative affinity”, `GATGGACTGGGGTATCGGGACGTGCTA` is recorded as 0.572 z-score.
